Experimental data pooled from the literature.
Every numbered part comes from another study and shows a few of its results, in no order.

Set 1 — observed: enzyme activity; mode: inhibitor; concentration: 20 µM; setting: hit confirmation, no DTT
Target: Replicase polyprotein 1ab, main protease (rep, Severe acute respiratory syndrome coronavirus 2, UniProt P0DTD1)
Compound	inhibition [%]
O=C(O)c1cc(O)c(O)c(O)c1	58.4
CCCCCCNC(=O)n1cc(F)c(=O)[nH]c1=O	111
CCCCCCCCCCCCCCCC[n+]1ccn(Cc2ccccc2)c1C	77.8

Set 2 — technique: protein binding microarray; molecule type: double-stranded DNA, one strand shown; matrix: in vitro; concentration: not given; baseline: not given; direction: higher = stronger binding
Target: Histone acetyltransferase KAT6A, winged helix 1, GST fusion (KAT6A, Homo sapiens, UniProt Q92794, residues 1-85)
Setting: 8-mer, flanks averaged, mean of 2 arrays, mostly near background
Residues (chain): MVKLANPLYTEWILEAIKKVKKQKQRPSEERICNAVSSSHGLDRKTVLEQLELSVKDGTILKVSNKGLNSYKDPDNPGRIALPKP
Strand	E-score
ATCCGTGC	0.239
TACGCTGA	0.252
GCTAAGCC	0.16
GTCAGGTA	-0.111
GCACCTAA	-0.143
ACAAGATC	-0.0481
ATATCTGA	-0.139
CCTGAGTA	-0.0992

Set 3 — cell line: HEK-293T-ACE2; concentration: concentration not given; baseline: vehicle
Compound	cell number [%]
Cl.N=C(N)N	102
CC(C)C[C@H](NC(=O)CNC(=O)c1cc(Cl)ccc1Cl)B(O)O	55.6
Nc1cccc2c1CN(C1CCC(=O)NC1=O)C2=O (stereo not drawn)	101
CCCS(=O)(=O)Nc1ccc(F)c(C(=O)c2c[nH]c3ncc(-c4ccc(Cl)cc4)cc23)c1F	103

Set 4 — mode: inhibitor; concentration: 20 µM
Target: Replicase polyprotein 1ab, nsp13 helicase (rep, Severe acute respiratory syndrome coronavirus 2, UniProt P0DTD1)
SMILES	inhibition
CC(=O)NCCC(=O)N[C@@H](Cc1cnc[nH]1)C(=O)O	-4.06%
CCCCOc1cc(CC2CNC(=O)N2)ccc1OC (stereo not drawn)	0.28%
O=C(Nc1cccc(C(F)(F)F)c1)Nc1ccc(Br)cc1-c1nn[nH]n1	13.6%
CC/C(=C(\c1ccc(O)cc1)c1ccc(OCCN(C)C)cc1)c1ccccc1	11%
COc1ccccc1N1CCN(CCN2C(=O)CC3(CCCC3)CC2=O)CC1	4.95%
O=C(O)Cc1cccnc1C(=O)O	1.59%
COc1cc2c(cc1Cc1cccc(Cl)c1F)c(=O)c(C(=O)O)cn2[C@H](CO)C(C)C	3.16%
CCCCC1CCC(c2nc(-c3ccncc3)no2)CC1 (stereo not drawn)	0.42%
CCn1c(-c2nonc2N)nc2c(C#CC(C)(C)O)ncc(OC[C@H]3CCCNC3)c21	15.7%
O=C1C(Cl)=C(NCCN2CCOCC2)C(=O)c2ncccc21	12%
CC1(C)OC[C@@H](COC(=O)CCc2ccc(OC[C@@H](O)CNCCNC(=O)N3CCOCC3)cc2)O1	4.76%
CCCC(CCC)C(N)=O	2.44%
CC(=O)NC[C@H]1CN(c2ccc(N3CCN(C(=O)CO)CC3)c(F)c2)C(=O)O1	2.45%
O=C1c2c(O)ccc(O)c2C(=O)c2c(NCCNCCO)ccc(NCCNCCO)c21	109%
CC(C)(C)CC(C)(C)c1cc(Cc2cc(C(C)(C)CC(C)(C)C)cc(-n3nc4ccccc4n3)c2O)c(O)c(-n2nc3ccccc3n2)c1	11.2%
CNC[C@@H]1CC[C@@H](N)[C@@H](O[C@H]2[C@H](O)[C@@H](O[C@H]3OC[C@](C)(O)[C@H](NC)[C@H]3O)[C@H](N)C[C@@H]2N)O1	-4.05%
O=C(O)CCCc1ccc(N(CCCl)CCCl)cc1	-3.32%
O=P(O)(O)C(O)(Cc1cccnc1)P(=O)(O)O	1.75%
CCOc1cccc(NC(=O)c2ccc(N3CCCC3)c(C(F)(F)F)c2)c1	13.8%
C[C@@H]1O[C@@H](O[C@H]2[C@H](Oc3cc(O)c(C(=O)CCc4ccc(O)cc4)c(O)c3)O[C@H](CO)[C@@H](O)[C@@H]2O)[C@H](O)[C@H](O)[C@H]1O	3.26%
O=S(=O)(NC1CCNCC1)c1cc(S(=O)(=O)c2ccccc2)ccc1C(F)(F)F	9.92%
O=C(c1ccc(F)cc1)C1CCN(CCn2c(=O)[nH]c3ccccc3c2=O)CC1	-3.6%
C=CC(=O)N1CCC[C@@H](n2nc(-c3ccc(Oc4ccccc4)cc3)c3c(N)ncnc32)C1	-0.23%
OC(c1ccccc1)(c1ccccc1)C12CC[N+](CCOCc3ccccc3)(CC1)CC2	0.78%
Cc1noc(NS(=O)(=O)c2ccc(N)cc2)c1C	-1.09%

Set 5 — technique: RNA Bind-n-Seq; molecule type: RNA; matrix: in vitro; concentration: 1 µM; setting: whole 134-nt RNA, ends assumed; with: 150 mM KCl; baseline: input library; direction: higher = stronger binding
Target: Ras GTPase-activating protein-binding protein 1, C-terminal RGG region (G3BP1, Homo sapiens, UniProt Q13283)
UniProt Q13283, sequence (whole entry, looked up): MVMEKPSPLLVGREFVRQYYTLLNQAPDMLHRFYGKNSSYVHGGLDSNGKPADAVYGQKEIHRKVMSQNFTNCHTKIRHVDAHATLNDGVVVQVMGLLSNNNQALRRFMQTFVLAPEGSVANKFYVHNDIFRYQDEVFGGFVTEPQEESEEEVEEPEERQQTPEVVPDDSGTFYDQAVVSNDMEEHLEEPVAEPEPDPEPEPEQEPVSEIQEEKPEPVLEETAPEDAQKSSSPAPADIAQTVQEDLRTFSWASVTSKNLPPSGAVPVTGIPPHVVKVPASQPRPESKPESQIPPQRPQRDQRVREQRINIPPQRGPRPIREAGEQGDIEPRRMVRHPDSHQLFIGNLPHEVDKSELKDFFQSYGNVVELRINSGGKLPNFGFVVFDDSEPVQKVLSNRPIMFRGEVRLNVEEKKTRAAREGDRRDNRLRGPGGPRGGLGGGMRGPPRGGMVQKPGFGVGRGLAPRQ
All sequences stand within: GGGAGUUCUACAGUCCGACGAUC … UGGAAUUCUCGGGUGUCAAGG
Strand	log2 enrichment
ACCAUGCAGGUGGGCAUCUUUGGGAAGUGGGGCAAGGGGGGGAUAGGGAGGGGGGUAACACUUUGGGCACAGGUGGUCCCAGGUCGUUUC	2.19
CCUCAAGUCCUGUGCUACACAUCGUAUGUACCGAAUCGGGAGGGGAGGGGAGGAAAGUAUUAUGUUACGCCGUUCGGAUCUGCACUUCCA	-0.0055
AAGUCCUGUGCUACACAUCGUAUGUACCGAAUCGGAAAAGGGAAAAGGAAAAGGGGAAAGUAUUAUGUUACGCCGUUCGGAUCUGCACUU	-1.59
UCCUGUGCUACACAUCGUAUGUACCGAAUCGGGGUUUUUUGGGUUUUUUGGGUUUUUUGGAAAGUAUUAUGUUACGCCGUUCGGAUCUGC	-0.448
UCCUGUGCUACACAUCGUAUGUACCGAAUCGGGGUUUUUUGGUUUUUUGGUUUUUUGGGAAAGUAUUAUGUUACGCCGUUCGGAUCUGCA	-1.01
CUGUGCUACACAUCGUAUGUACCGAAUCGGGAAAAAAAGGGGAAAAAAAGGGGAAAAAAAGGAAAGUAUUAUGUUACGCCGUUCGGAUCU	-1.11
CCUCAAGUCCUGUGCUACACAUCGUAUGUACCGAAUCGGGGCCGGCCGGCCGGAAAGUAUUAUGUUACGCCGUUCGGAUCUGCACUUCCA	-1.07
UCAAGUCCUGUGCUACACAUCGUAUGUACCGAAUCGGGUUGGGGUUGGGGUUGGGAAAGUAUUAUGUUACGCCGUUCGGAUCUGCACUUC	2.52

Set 6 — technique: RNA Bind-n-Seq; molecule type: RNA; matrix: in vitro; concentration: not given; baseline: input RNA pool; direction: higher = stronger binding
Target: RING finger protein unkempt homolog, zinc fingers 1-6, GST-SBP tag (UNK, Homo sapiens, UniProt Q9C0B0, residues 30-357)
Setting: RNA with constant flanks, human and mouse sites, ends assumed
All sequences stand within: GGGAGUUCUACAGUCCGACGAUC … CAACAGAGGAUUGAGCAUCA
Target sequence (chain): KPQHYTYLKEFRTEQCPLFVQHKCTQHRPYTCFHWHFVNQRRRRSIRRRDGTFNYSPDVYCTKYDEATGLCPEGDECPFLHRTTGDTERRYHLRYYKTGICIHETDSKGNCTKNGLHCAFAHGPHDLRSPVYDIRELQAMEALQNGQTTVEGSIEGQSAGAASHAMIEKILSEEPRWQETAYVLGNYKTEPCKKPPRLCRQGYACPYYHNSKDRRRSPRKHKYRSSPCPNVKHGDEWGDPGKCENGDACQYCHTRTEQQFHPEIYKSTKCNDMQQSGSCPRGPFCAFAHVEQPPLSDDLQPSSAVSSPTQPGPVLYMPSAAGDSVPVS
Strand	bound/input enrichment [ratio]
AAGGAGUAAGCAAAUUGGAGGUGGAGGGUGGGCCUCACCUUAUACUACAAUCAAACCUUGUAGUUUGGGGUGUUUUGUUUGUUUGUUUUGUAUUGUAUUGUUUUUAAACAAGUCUAGCCA	0.452
AAGACACUGACCCGGAACCACCUGUACUGUGAGCCCCCUGUGGAGCAGCCCCUGCCACAUCCCCAUGCCCUCCGAGAGGCUCCAGAUGCUUUGCCUGAGUUCACGGUACAGAUGGGCAAC	0.199
GAUCCCUUGAUGGCCCCAGAAUCCCAUAUAUUAGCUUCUAACACCAUGGAGACCCAUAUAUUAGCAUCCAACACCAUGGACUCCCAAAUGCUAGCGUCCAACACCAUGGACUCCCAGAUG	1.77
GAAGUAGAUUCCAAAGCAGCUUUAAUACCGGAUUGGUUACAAGAUAGACCAUCAAACAGAGAAAUGCCAUCUGAAGAAGGAACAUUAAAUGGUCUCACUUCUCCAUUUAAGCCAGCUAUG	0.378
UACUACUGCUGUGAAGAGUGUAACUUCAUGGCAGUGACAGAAAAUGAAUUGGAAUGCCAUCGAGGCAUUGCACAUGGGGCAGUGGUAAAAUGCCCUAUGGUCACUUCUGAUAUUGCCCAG	0.0782
UCCAGCCUUUCCUGACUCACCUCCAUCUUCGGUUCUUCAGUUUUCUGAGAAGAGUUGGGAUAUGUGGGAAGGGGCAUGGGAGCUCGGCAGCCUCCGCCUGCCAGGAAGGCAGUUUCGCCU	0.0708

Repeated from above (set 3):
Compound	cell number [%]
CC(C)C[C@H](NC(=O)CNC(=O)c1cc(Cl)ccc1Cl)B(O)O	55.6
Nc1cccc2c1CN(C1CCC(=O)NC1=O)C2=O (stereo not drawn)	101
CCCS(=O)(=O)Nc1ccc(F)c(C(=O)c2c[nH]c3ncc(-c4ccc(Cl)cc4)cc23)c1F	103
